# Results of several laboratories.
# Chain of UniProt P07332 (whole entry, looked up): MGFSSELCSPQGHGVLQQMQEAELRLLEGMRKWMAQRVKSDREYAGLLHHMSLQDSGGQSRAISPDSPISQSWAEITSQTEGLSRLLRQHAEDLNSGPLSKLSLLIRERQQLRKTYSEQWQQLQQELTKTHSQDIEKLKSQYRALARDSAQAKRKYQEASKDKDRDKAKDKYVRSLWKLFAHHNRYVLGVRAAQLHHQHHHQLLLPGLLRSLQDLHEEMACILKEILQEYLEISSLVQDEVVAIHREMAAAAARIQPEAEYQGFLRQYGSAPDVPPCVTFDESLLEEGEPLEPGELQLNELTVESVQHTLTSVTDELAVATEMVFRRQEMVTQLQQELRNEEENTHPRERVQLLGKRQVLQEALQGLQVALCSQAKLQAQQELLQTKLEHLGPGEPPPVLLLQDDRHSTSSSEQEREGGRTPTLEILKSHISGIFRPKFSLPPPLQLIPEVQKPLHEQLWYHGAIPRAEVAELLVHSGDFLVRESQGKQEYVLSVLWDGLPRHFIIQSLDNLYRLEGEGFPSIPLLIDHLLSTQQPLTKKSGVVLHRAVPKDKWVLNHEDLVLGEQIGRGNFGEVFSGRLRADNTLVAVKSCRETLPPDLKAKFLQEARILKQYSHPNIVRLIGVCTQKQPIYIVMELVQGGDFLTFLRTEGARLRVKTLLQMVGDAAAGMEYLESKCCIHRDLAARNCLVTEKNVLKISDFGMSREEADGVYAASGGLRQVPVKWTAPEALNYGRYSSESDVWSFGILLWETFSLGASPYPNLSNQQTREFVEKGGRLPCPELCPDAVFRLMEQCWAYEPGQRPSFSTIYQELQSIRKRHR
SMILES,tested on,assay,test system,setting,endpoint,value
CC(=O)NC[C@H]1CN(c2ccc(N3CCOCC3)c(F)c2)C(=O)O1,Staphylococcus epidermidis,microbial growth,,clinical isolate,MIC50,1 µg/mL
CN(CC(=O)Nc1ccc(N(C)c2ccc(Cl)c(Cl)c2)cc1)c1ccccc1N1CCCC1=O,Plasmodium falciparum,parasite growth,3D7,"72 h, blood stage",EC50,0.061 µM
O=c1c(O)c(-c2ccc(O)c(O)c2)oc2cc(O)cc(O)c12,Staphylococcus aureus,microbial growth,NCTC8325,,MIC,> 30 µM
Cc1ccc(Oc2ccc(NC(=O)CNc3ccccc3N3CCOC3=O)cc2)cc1,Plasmodium falciparum,parasite growth,3D7,"72 h, blood stage",EC50,0.958 µM
Cc1ccc2cc[nH]c2c1,Cryptosporidium parvum,parasite growth,HCT-8,"24 h, intracellular",EC90,1270 µM
O=c1cc(N2CCOCC2)oc2c(-c3ccccc3)cccc12,Staphylococcus aureus,microbial growth,NCTC8325,,MIC,> 30 µM
CCS(=O)(=O)Oc1ccc(C=NNC(=O)CSc2nc3ccc(Cl)cc3c(=O)n2-c2ccccc2)cc1,Pseudomonas aeruginosa,"microbial growth, well diffusion",,20 µg/mL,inhibition zone,2 mm
CCOc1ccn(-c2ccc(F)cc2)c(=O)c1C(=O)Nc1ccc(Oc2ccnc(N)c2Cl)c(F)c1,Staphylococcus aureus,microbial growth,NCTC8325,,MIC,> 30 µM
CNc1ncc2c(/C=C/C(=O)N3CCC(OC)CC3)nn(Cc3cccc(C(F)(F)F)c3)c2n1,"Tyrosine-protein kinase Fes/Fps (FES, Homo sapiens, UniProt P07332)","enzyme activity, inhibitor, radiometric",,1 µM,remaining activity,90%
CCCCC(=O)O,Cryptosporidium parvum,"parasite growth, imaging",HCT-8,"1 mM, 24 h, intracellular",activity vs control,86.3%
Cc1ccc(Oc2ccc(NC(=O)CN(C)c3ccccc3N3CCCC3=O)cc2)cc1,Plasmodium falciparum,parasite growth,3D7,"72 h, blood stage",EC50,0.503 µM
COc1cc(C#C[C@@H](O)CC(C)C)ccc1O,Pseudomonas aeruginosa,"microbial growth, absorbance",,"100 µM, 24 h",activity vs control,96%
COc1cccc2[nH]ccc12,Cryptosporidium parvum,parasite growth,HCT-8,"24 h, intracellular",EC90,1320 µM
CCCC(=O)C#Cc1ccc(O)c(OC)c1,Pseudomonas aeruginosa,"microbial growth, absorbance",,"10 µM, 24 h",activity vs control,98%
CC(=O)OC[C@@]1(C)[C@H]2CC[C@@H]3CN(Cc4ccc(F)cc4)[C@@H](C4=CCOC4=O)C[C@H]3[C@]2(C)CC[C@H]1OC(C)=O,unidentified human coronavirus,cytopathic effect,MRC5,"25 µM, 72 h",inhibition,84.7%
O=C(C#Cc1ccc(F)c(F)c1)c1ccccc1,Pseudomonas aeruginosa,"microbial growth, absorbance",,"100 µM, 24 h",activity vs control,82%
Cc1cn(-c2cc(NC(=O)c3ccc(C)c(Nc4nccc(-c5cccnc5)n4)c3)cc(C(F)(F)F)c2)cn1,Staphylococcus aureus,microbial growth,NCTC8325,,MIC,> 30 µM
NC(=O)NCCC[C@H](N)C(=O)O,Cryptosporidium parvum,"parasite growth, imaging",HCT-8,"1 mM, 24 h, intracellular",activity vs control,102%
COc1cc(C#CC(=O)c2ccccc2C)ccc1O,Pseudomonas aeruginosa,"microbial growth, absorbance",,"100 µM, 24 h",activity vs control,122%
O=C(O)c1cc(O)c2cccc(O)c2n1,Cryptosporidium parvum,"parasite growth, imaging",HCT-8,"1 mM, 24 h, intracellular",activity vs control,110%
O=C(CNc1ccccc1N1CCCC1=O)Nc1ccc(Oc2ccc(Cl)cc2)cc1,Plasmodium falciparum,parasite growth,3D7,"72 h, blood stage",EC50,1.67 µM
CN(Cc1ccc(C2(C(F)(F)F)CC2)cc1)Cc1cccc2ccccc12,Trichophyton rubrum,"microbial growth, disc diffusion",ATCC28188,"0.002 µg/mL, 6 days",inhibition zone,21.8 mm
CO[C@H]1C[C@@H]2CC[C@@H](C)[C@@](O)(O2)C(=O)C(=O)N2CCCC[C@H]2C(=O)O[C@H]([C@H](C)C[C@@H]2CC[C@@H](O)[C@H](OC)C2)CC(=O)[C@H](C)/C=C(\C)[C@@H](O)[C@@H](OC)C(=O)[C@H](C)C[C@H](C)/C=C/C=C/C=C/1C,Staphylococcus aureus,microbial growth,NCTC8325,,MIC,> 30 µM
COc1cc(C#CC(=O)c2ccc(Cl)cc2)ccc1O,Pseudomonas aeruginosa,"microbial growth, absorbance",,"100 µM, 24 h",activity vs control,97%
COC(=O)Nc1nc2cc(C(=O)c3ccc(F)cc3)ccc2[nH]1,Cryptococcus neoformans,"microbial growth, broth dilution",,"72 h, clinical isolate",IC90,5 µM
Cc1ccc(Oc2ccc(NC(=O)CNc3ccccc3N3CCCS3(=O)=O)cc2)cc1,Plasmodium falciparum,parasite growth,3D7,"72 h, blood stage",EC50,> 10 µM
FC(F)(F)c1ccc(/C=C/c2nc(COc3ccc(CCCCn4ccnn4)cc3)co2)cc1,Staphylococcus aureus,microbial growth,NCTC8325,,MIC,> 30 µM
Cc1ncc(CO)c(CO)c1O,Cryptosporidium parvum,"parasite growth, imaging",HCT-8,"1 mM, 24 h, intracellular",activity vs control,78.7%
CC1(C)S[C@@H]2[C@H](NC(=O)[C@H](N)c3ccccc3)C(=O)N2[C@H]1C(=O)O,Streptococcus agalactiae,microbial growth,,clinical isolate,MIC90,16 µg/mL
Cc1ccc(N(c2ccc(NC(=O)CN(C)c3ccccc3N3CCCC3=O)cc2)C2CCCC2)cc1,Plasmodium falciparum,parasite growth,3D7,"72 h, blood stage",EC50,0.035 µM
COc1ccc2[nH]ccc2c1,Cryptosporidium parvum,parasite growth,HCT-8,"24 h, intracellular",EC90,1490 µM
CCS(=O)(=O)Oc1ccc(C=NNC(=O)CSc2nc3c(C)cccc3c(=O)n2-c2ccccc2)cc1OC,Pseudomonas aeruginosa,"microbial growth, well diffusion",,20 µg/mL,inhibition zone,3 mm
Cc1ccc(N(C)c2ccc(NC(=O)CN(C)c3ccccc3N3CCCC3=O)cc2F)cc1,Plasmodium falciparum,parasite growth,3D7,"72 h, blood stage",EC50,0.623 µM
CC[C@H]1OC(=O)[C@H](C)[C@@H](O[C@H]2C[C@@](C)(OC)[C@@H](O)[C@H](C)O2)[C@H](C)[C@@H](O[C@@H]2O[C@H](C)C[C@H](N(C)C)[C@H]2O)[C@](C)(O)C[C@@H](C)C(=O)[C@H](C)[C@@H](O)[C@]1(C)O,Staphylococcus aureus,microbial growth,NCTC8325,,MIC,0.26 µM
COc1cc(-c2[nH]nnc2C(=O)c2ccccc2)ccc1O,Pseudomonas aeruginosa,"microbial growth, absorbance",,"100 µM, 24 h",activity vs control,92%
Cc1ccc(N(C)c2ccc(NC(=O)CN(C)c3ccccc3N3CCCC3=O)cc2)cc1Cl,Plasmodium falciparum,parasite growth,3D7,"72 h, blood stage",EC50,0.031 µM
C=CC(=O)ON=C1C=CC(=C(C#N)c2ccccc2)C=C1,Candida tropicalis,"microbial killing, broth dilution",ATCC13803,48 h,MFC,8 µg/mL
CO[C@H]1/C=C/O[C@@]2(C)Oc3c(C)c(O)c4c(c3C2=O)C2=NC3(CCN(CC(C)C)CC3)NC2=C(NC(=O)/C(C)=C\C=C\[C@H](C)[C@H](O)[C@@H](C)[C@@H](O)[C@@H](C)[C@H](OC(C)=O)[C@@H]1C)C4=O,Trypanosoma cruzi,"parasite growth, absorbance","Vero, TULAHUEN","96 h, intracellular, amastigote",IC50,7.32 µM
CC(C)CN(C[C@@H](O)[C@H](Cc1ccccc1)NC(=O)O[C@H]1CO[C@H]2OCC[C@H]21)S(=O)(=O)c1ccc(N)cc1,Human immunodeficiency virus 1,viral replication,,,IC90,0.0281 µM
COc1cc(C#CC(=O)C(C)C)ccc1O,Pseudomonas aeruginosa,"microbial growth, absorbance",,"100 µM, 24 h",activity vs control,87%
CC(C)(C)[C@@H]1NC(=O)O[C@@H]2CCC[C@H]2OC/C=C/C(F)(F)c2nc3ccccc3nc2O[C@@H]2C[C@@H](C(=O)N[C@]3(C(=O)NS(=O)(=O)C4(C)CC4)C[C@H]3C(F)F)N(C2)C1=O,Trypanosoma cruzi,"parasite growth, absorbance","Vero, TULAHUEN","96 h, intracellular, amastigote",IC50,110 µM
COc1cc(Nc2ncc3c(n2)-c2ccc(Cl)cc2C(c2c(F)cccc2OC)=NC3)ccc1C(=O)O,Staphylococcus aureus,microbial growth,NCTC8325,,MIC,> 30 µM
Cc1cccc(C(=O)C#Cc2ccc(F)c(F)c2)c1,Pseudomonas aeruginosa,"microbial growth, absorbance",,"10 µM, 24 h",activity vs control,103%
C[C@@]12COCO[C@@H]1CC[C@]1(C)[C@@H]2CC[C@@H]2CN(Cc3ccco3)[C@@H](C3=CCOC3=O)C[C@H]21,unidentified human coronavirus,cytopathic effect,MRC5,"25 µM, 72 h",inhibition,41.7%
C[C@H](CCC(=O)O)[C@H]1CC[C@H]2[C@@H]3CC[C@@H]4C[C@H](O)CC[C@]4(C)[C@H]3C[C@H](O)[C@]12C,Cryptosporidium parvum,"parasite growth, imaging",HCT-8,"100 µM, 24 h, intracellular",activity vs control,47.3%
CN(Cc1ccc(C(C)(C)C)cc1)Cc1cccc2ccccc12,Trichophyton rubrum,"microbial growth, disc diffusion",ATCC28188,"0.002 µg/mL, 6 days",inhibition zone,36 mm

# A few entries again:
SMILES,tested on,assay,test system,setting,endpoint,value
CO[C@H]1C[C@@H]2CC[C@@H](C)[C@@](O)(O2)C(=O)C(=O)N2CCCC[C@H]2C(=O)O[C@H]([C@H](C)C[C@@H]2CC[C@@H](O)[C@H](OC)C2)CC(=O)[C@H](C)/C=C(\C)[C@@H](O)[C@@H](OC)C(=O)[C@H](C)C[C@H](C)/C=C/C=C/C=C/1C,Staphylococcus aureus,microbial growth,NCTC8325,,MIC,> 30 µM
COc1cc(-c2[nH]nnc2C(=O)c2ccccc2)ccc1O,Pseudomonas aeruginosa,"microbial growth, absorbance",,"100 µM, 24 h",activity vs control,92%
C[C@H](CCC(=O)O)[C@H]1CC[C@H]2[C@@H]3CC[C@@H]4C[C@H](O)CC[C@]4(C)[C@H]3C[C@H](O)[C@]12C,Cryptosporidium parvum,"parasite growth, imaging",HCT-8,"100 µM, 24 h, intracellular",activity vs control,47.3%
CCOc1ccn(-c2ccc(F)cc2)c(=O)c1C(=O)Nc1ccc(Oc2ccnc(N)c2Cl)c(F)c1,Staphylococcus aureus,microbial growth,NCTC8325,,MIC,> 30 µM
COc1cc(Nc2ncc3c(n2)-c2ccc(Cl)cc2C(c2c(F)cccc2OC)=NC3)ccc1C(=O)O,Staphylococcus aureus,microbial growth,NCTC8325,,MIC,> 30 µM
